# Measured values from different studies.
# A part holds a random share of what one study measured. Substitutions count along the parent as printed.

# Study 1
# Target: RNA binding protein fox-1 homolog 2, RRM domain, GST-SBP tag (RBFOX2, Homo sapiens, UniProt O43251-10, residues 100-194)
# Technique: RNA Bind-n-Seq
# Form: RNA
# Medium: in vitro
# Concentration: 365 nM
# Setting: natural RNA segment, single round, ends assumed
# Baseline: no-protein control
# Reading: higher = stronger binding
# Constant ends, left off below: GGGAGUUCUACAGUCCGACGAUC … UGGAAUUCUCGGGUGCCAA
# Target sequence (chain): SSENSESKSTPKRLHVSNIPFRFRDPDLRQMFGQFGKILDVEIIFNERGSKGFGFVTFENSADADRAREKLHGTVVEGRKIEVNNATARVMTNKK
Sequence,RBNS enrichment (R)
GACGUCAGCCAUGUACAGGAUCCACAGGGGUGGUGUCAAAUGCUAUUGAAAUUGUGUUGAAUUGUAUGCUUUUUCACUUUUGAUAAAUAAACAUGUAAAAAUGUUUCAAA,2.23
UUCAGAAAAAUAAACUUUCCCAAAAUGUGUCUGAACCACAAGAGCAUACAGUGGAAGUGCUACCUCUAAUCUAACCAGAGCACCUUCAUGGUGGAAGACACCCACCAGGU,0.86
UCCAAAGCCACAUCACAGUCGGUGGUGAUGCAUCUGGGGGCUUACUCUGAGGAAACCUAGGAAAUCUCGGUGUACUAGGAAGUGAAUCCUGCAGGACAGCUGCACUCAGG,0.357
AGCCCAAUACCAGAGCAUAAACUAUCCAUUCUGGGGUCUGGCUUUAGAAAUCAUCUUUGUGGGAAGACCUAAUUCUUCACAGCAAGGAUCUCAGGCAUGCCUUCUAGAUU,1.25
UCUGUUGCUUCAGUAAAAGGACCUCGGGGAAUAAAACAUUUCUCUCUUAUAUGCCAGAAUGUAGGCUGGUCCCUAUGUCAUGUCUUCCAUUAAGAACACUAAAAAGUCCU,0.721
CAAUGAUUUUUUUUUAAACUUUCAAAGUGGUUGUUCAAAGUGUAGCAACUUGUAUGUUGAAAUGAUUGUAUGUUCUGUAUGAAAUGUUCCACUUGAGAUUUUUACAAAAG,7.51
GUCUGAGGUCACACUCUCUGCCCACUCACCUCCUUGGCUGACAUCGGUUGUGUUUGGUGCUGACACUCUGAUCCCGAAGCCAGGGAGCCCCAAGGGGCUGCAUGACCCUG,18.3
GAGAAAUAGCACUCUUCUCCCUUCCCCCAGAUGGCAGGGCUCUGGCCUCCCUACACCUCAUACCCUGCCUGCCUCCUCCAGGAGGAAUCUCCGGGGCCCCUUCCUGACUC,1.1
AUCUGCUGCCUUAGACCUGGGUGGGAUGUCUUGCUUAUUUGAAAUGUGUAGUGUUGAUUGACACAUUAAGACUAGCAGUCUUUAAUCCUGCCACUUUAUUGAGGUGUUAU,0.735
ACUUCCAGGUGGUCUCCUGAGUGUCUGGCUUGAUAAUGCCCUCAAUUCAGGAGUGAGCCUCUGUGACCCUUGGGGUGCUCGCAGAAGGCCUCUCCAAGCAGUCAAGCCCU,0.233
AGAAUGGGAAUAUAUGUGUGCCUCCCAACAUUUACUGUUAAAGUGUGUUAUCUUUAUAUGUCAAACUGGUUGAACACUGUAAUGAGAAUAAACUGCACAGAGUUUAUUCU,0.856
UGGGGUUUCUUUUCUGUUCUUUUCGGAGGAGAGGGCCCGAGAAGGGGCCAUACCAGGGCGCGGCGCUGGGUUGCCACACUUGGGAAAGCAGCCCGGAGCUGGGUGCUGGG,0.679

# Study 2
# Target: Interferon regulatory factor 7, full length, phosphomimetic (IRF7, Homo sapiens, UniProt Q92985, residues 1-503, S101K/S471D/S472D/S475D/S476D/S477D/S483D/S484D/S487D)
# Technique: protein-binding microarray
# Form: double-stranded DNA, one strand shown
# Medium: in vitro
# Concentration: 250 nM
# Setting: 60-bp whole probe
# Together with: salmon DNA 0.4 mg/ml
# Baseline: random background probes
# Reading: higher = stronger binding
# Constant ends, left off below: GCCTAGCAC … GTCTTGATTCGCTTGACGCTGCTG
# Construct (chain): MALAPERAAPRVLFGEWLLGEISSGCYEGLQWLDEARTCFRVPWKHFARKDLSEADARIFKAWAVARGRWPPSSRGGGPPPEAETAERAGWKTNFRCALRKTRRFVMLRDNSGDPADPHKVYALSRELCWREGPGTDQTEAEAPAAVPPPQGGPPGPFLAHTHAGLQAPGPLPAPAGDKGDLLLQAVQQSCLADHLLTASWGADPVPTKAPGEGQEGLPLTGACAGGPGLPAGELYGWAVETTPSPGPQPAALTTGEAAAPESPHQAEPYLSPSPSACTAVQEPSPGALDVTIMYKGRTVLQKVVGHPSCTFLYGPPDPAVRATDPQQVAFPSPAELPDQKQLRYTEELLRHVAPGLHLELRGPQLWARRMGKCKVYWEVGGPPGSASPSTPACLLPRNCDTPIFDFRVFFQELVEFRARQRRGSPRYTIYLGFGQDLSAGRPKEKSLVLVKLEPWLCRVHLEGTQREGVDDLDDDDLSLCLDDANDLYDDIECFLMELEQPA
Sequence,log fluorescence
TCACCACCCACTCTGGCACTGTGCTAG,-0.315 z-score
GACGGTTTCTGGACTGGGGACGTGCTA,0.862 z-score
GACGGTCTCAGTATCGGGACGTGCTAG,0.445 z-score
GACGGTATCCTTCCCCTGACGTGCTAG,0.0596 z-score
TTAGATCTCCGTTTCGATTAGTGCTAG,3.51 z-score
TTAAGTTTCCTACTGCTTTAGTGCTAG,1.72 z-score
CTTGCTTTCCTACTGAAATAGTGCTAG,1.3 z-score
TCATCTCTCTGTGACACACTGTGCTAG,0.795 z-score
TCAATCGTAAGCAAAAAACTGTGCTAG,-0.159 z-score
GGCGATTTCGGGACTGGAGACGTGCTA,-0.535 z-score
GACGGGTTCCTTATCCTGACGTGCTAG,0.759 z-score
TTAGGACTGCTTATCCTTCAGTGCTAG,-0.14 z-score
TCATTTTTTCTAATTGAACTGTGCTAG,2.2 z-score
TTAGGGTTCGACTATCGGTTAGTGCTA,0.121 z-score
TATGTTCCCTATTTAAGGCTGTGCTAG,4.27 z-score
GACAATCTCAGTTTCGAGACGTGCTAG,4.14 z-score
GACGGTCTCGGAATGGGGACGTGCTAG,1.62 z-score
ATATTGATGGCTCTCTGGACGTGCTAG,-0.16 z-score
TTCCAGCTGGTGACTAGCGAGTGCTAG,-0.267 z-score
GACGGACGGCTTCTCCTGACGTGCTAG,-0.908 z-score
TCACATGTAAATAATCAGACTGTGCTA,-0.0685 z-score
CTCTACTTGTGTCTAGAGATGTGCTAG,0.121 z-score
TTAGGTAACGGGACTGGGTTAGTGCTA,-0.085 z-score
CTCTGGGGAGATCAGCGCATGTGCTAG,-1.44 z-score
GACGGTTTCGGGTCTCGGGACGTGCTA,10.3 z-score

# Study 3
# Target: Prothrombin, mature alpha-thrombin (F2, Homo sapiens, UniProt P00734)
# Technique: aptamer microarray, sandwich
# Form: DNA with 2'F-ANA
# Medium: in vitro
# Concentration: 200 nM
# Setting: whole 15-mer aptamer, many near background
# Together with: Cy3 exosite-II aptamer, 400 nM
# Reading: higher = stronger binding
# Sequence: GGTTGGTGTGGTTGG
Modification,mean fluorescence intensity [a.u.]
2'F-ANA at 1 3 4 5 9 10 11 15,48.2
2'F-ANA at 1 2 4 5 6 8 9 12 13 14,48.5
2'F-ANA at 4 5 7 8 9 11 12 14,119
2'F-ANA at 1 2 5 6 7 12 14,48
2'F-ANA at 1 2 5 7 8 9 10 11 12 14 15,54.6
2'F-ANA at 1 4 5 6 7 8 9 14 15,77.4
2'F-ANA at 1 3 4 6 8 9 11 12,368
2'F-ANA at 1 2 4 6 8 9 10 11 13,53.3
2'F-ANA at 8 9 10 11 12 13 14,102
2'F-ANA at 2 4 6 11,232
2'F-ANA at 2 5 7 9 15,68
2'F-ANA at 5 7 9 10 11 13 14 15,44.1
2'F-ANA at 3 4 5 6 7 8 11 13 14 15,53.5
2'F-ANA at 2 3 5 8 9 10 11 13,87
2'F-ANA at 2 4 5 7 8 10 11,47
2'F-ANA at 2 6 7 8 9 10 11 12 13 14 15,108
2'F-ANA at 2 4 5 8 9 12 13 15,87.3
2'F-ANA at 2 3 4 5 6 10 13,46.7

# Study 4
# Target: PABPC1L2, full length, GST fusion (mouse, UniProt A0ABA7IW68)
# Technique: RNAcompete
# Form: RNA
# Medium: in vitro
# Concentration: 20 nM
# Setting: 7-mer, probes averaged, single round
# Baseline: mean of 7-mers
# Reading: higher = stronger binding
Sequence,7-mer Z-score
GCUGCCG,-0.184
CGGAUGC,-0.0609
UUAAGGU,-0.155
UUUGCGU,-0.496
UGAAUCG,-0.226
CUUCGUG,-0.304
AGAAGAA,0.541
GCGUGUC,-0.329
UGUCGAG,-0.162
AUUCCUC,-0.311
AGAACGG,0.075
UCAGUGG,-0.0844
AAAAGCA,4.58
GGCUACA,0.0605
CUAGGCC,-0.22
CCAUAGU,-0.382
AAUUAGA,0.383
CCUUUCA,-0.407

# Study 5
# Target: CCND3, cyclin fold, Cln2 fusion (human)
# Technique: yeast growth competition, sequencing
# Medium: yeast
# Setting: weak parent motif
# Baseline: not given
# Reading: higher = stronger binding
# Parent: PKN2 docking peptide (human); VSAVQKLDFSDTM; partner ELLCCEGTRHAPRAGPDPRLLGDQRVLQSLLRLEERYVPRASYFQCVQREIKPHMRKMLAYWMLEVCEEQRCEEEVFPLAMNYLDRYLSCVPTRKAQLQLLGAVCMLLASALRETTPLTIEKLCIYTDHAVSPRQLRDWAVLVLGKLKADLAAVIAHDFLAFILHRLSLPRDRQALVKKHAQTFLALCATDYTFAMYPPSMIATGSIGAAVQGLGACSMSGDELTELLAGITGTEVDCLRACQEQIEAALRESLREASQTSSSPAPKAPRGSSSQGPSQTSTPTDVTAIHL
Variant,normalised enrichment score
V1H,0.157
L7C,0.0617
M13D,0.123
S2L,0.0947
L7E,0.127
V1A,0.0799
S10L,0.114
M13G,0.144
S2Q,0.137
D8P,0.12
D8H,0.11
F9S,0.143
S10N,0.0399
T12G,0.139
M13F,0.0974
V1C,0.113
V4D,0.00971
A3N,0.0616
S10M,0.124
V1R,0.125
F9P,0.0493
S2V,0.113
V1W,0.125
K6E,0.0747

# Study 6
# Target: Histone acetyltransferase KAT6A, both winged helices, GST fusion (KAT6A, Homo sapiens, UniProt Q92794, residues 1-181)
# Technique: protein binding microarray
# Form: double-stranded DNA, one strand shown
# Medium: in vitro
# Concentration: not given
# Setting: 8-mer, flanks averaged, mean of 2 arrays, mostly near background
# Baseline: not given
# Reading: higher = stronger binding
# Target sequence (chain): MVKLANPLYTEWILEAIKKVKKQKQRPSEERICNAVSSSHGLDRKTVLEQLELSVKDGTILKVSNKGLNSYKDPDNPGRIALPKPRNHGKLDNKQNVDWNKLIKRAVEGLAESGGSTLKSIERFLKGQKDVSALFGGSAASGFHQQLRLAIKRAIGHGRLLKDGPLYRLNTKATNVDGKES
Sequence,E-score
GCTCATGA,0.00558
CTAGAGCC,-0.00654
CCGTATAA,0.243
CCCCCCCA,-0.227
CACACTAG,-0.0872
CCAGGCTC,-0.0964
CCTGCAGA,-0.127
GAACCAGC,0.0317
AGGGCAAT,-0.0206
TTCATCAA,-0.158
CCTGAGAA,-0.132
ATCCCGAC,0.171
AAATCCCT,-0.0171
ACTCTATG,-0.0324
AAATTCTT,-0.0619
AGCCTGGC,-0.201
GGGCCCAC,-0.0556
AACCCTGA,-0.144
ATGTGCGG,0.262
CGAGAGGA,-0.0336
CCCTGATC,-0.0721
ACAGATCC,-0.00511
AAGGACGC,0.0482
ATCTTATC,-0.0586
CATTTCGA,-0.148

# Repeated from above (study 4):
Sequence,7-mer Z-score
UUAAGGU,-0.155
AGAAGAA,0.541
UGUCGAG,-0.162
UGAAUCG,-0.226
CGGAUGC,-0.0609
AAUUAGA,0.383
GGCUACA,0.0605
